Measurements collected from several papers.
Each numbered part is a random draw from the data of one study; scales do not carry over between parts. Positions count from the first letter of the parent shown.

Block 1
Target: Histone acetyltransferase KAT6A, winged helix 2, GST fusion (KAT6A, Homo sapiens, UniProt Q92794, residues 85-181)
Technique: protein binding microarray
Molecule type: double-stranded DNA, one strand shown
Medium: in vitro
Concentration: not given
Notes: 8-mer, flanks averaged, mean of 2 arrays, mostly near background
Baseline: not given
Direction: higher = stronger binding
Target sequence (chain): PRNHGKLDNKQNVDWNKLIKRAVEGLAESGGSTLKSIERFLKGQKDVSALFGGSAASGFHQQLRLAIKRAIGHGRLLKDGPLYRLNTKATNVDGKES
Sequence | E-score
ACATCATA | 0.0895
CCACACCC | 0.0841
CGATAATA | 0.0266
CTAACTTC | 0.208
TTATGCAA | 0.114
ATGACAGC | -0.0247
AAATTCCC | -0.0737
ATTCAGCC | -0.0163
AGTCAGCA | 0.141
ATCTCTAG | -0.0366
CATAGACG | -0.109
ATGTACAC | -0.0938
GCTTGACC | 0.0417
ACGTGTAC | -0.0987
AACAGAAA | -0.027
CCTACGAC | -0.0375
GCTCCTCA | -0.00594
CGACTGTC | -0.143
GCTACTGA | 0.047
CCCTCTAG | -0.0763
AATGTCGC | -0.113
CAAAAAAA | 0.188
AGGAGCAG | -0.0573

Block 2
Target: Interferon regulatory factor 5, full length, phosphomimetic (IRF5, Homo sapiens, UniProt Q13568-2, residues 1-514, K96S/S451D/S453D/S456D/S462D)
Technique: protein-binding microarray
Molecule type: double-stranded DNA, one strand shown
Medium: in vitro
Concentration: 250 nM
Notes: 60-bp whole probe
Together with: salmon DNA 0.4 mg/ml
Baseline: random background probes
Direction: higher = stronger binding
Shared flanks, not repeated: GCCTAGCAC … GTCTTGATTCGCTTGACGCTGCTG
Sequence | log fluorescence [z-score]
CTGTTAAAGAATTAAGAAGGGTGCTAG | -0.12
GACGTTCTCGGTATCGGGACGTGCTAG | 1.51
TTAGATCTCAGTCTCGATGAGTGCTAG | 0.34
TTAGGTATGGGTCTCGGTTAGTGCTAG | 0.0546
TTATAACTGAGTATCGATTAGTGCTAG | 6.38
GACGGTGTCGACTTTCGGGACGTGCTA | 4.4
TTCATTATTGTTTCCTTCCTGTGCTAG | 1.58
TTGCCTCACCTCACCTGTCCGTGCTAG | -0.0979
GAGGATTTCGGGTTTCGAGACGTGCTA | 3.99
GACGGACTGGGGTCTGGGGACGTGCTA | -0.557
GACGGTCTCGGCCTGGGGACGTGCTAG | -0.378
GACGGACTGGACTTTCGGAACGTGCTA | 5.01
ATGTCTTCCCCTCTCTTTCCGTGCTAG | 0.231
TTAAGTTTCCTTTTCCTTTAGTGCTAG | 2.57
CTCGTGGTCCTGCCCTGCCTGTGCTAG | -0.654
TTAGGTCTCTTTATCCTTTAGTGCTAG | 0.0601
TTCGAACTGAGTTTCGATTAGTGCTAG | 9.4
TTAGGACTGGGGTATCGTTTAGTGCTA | 0.625
TCAATTTTCTAAATGCCACTGTGCTAG | 1.01
GACGGAGTGGGGTTTCGGGACGTGCTA | 1.25

Block 3
Organism: Saccharomyces cerevisiae
Observed: binding
Technique: competitive growth deep sequencing
Molecule type: peptide
Strain: cyclin D3-Cln2 fusion strain
Notes: peptide tiling library
Direction: direction not given
Sequence | enrichment score
KRNLLNEFDRII | 0.504
PARRRLRLSVDEVSSP | -1.53
SAVPLILPQAPSGPSY | 1.7
FQDSGYNELKSCSFDN | 0.0981
SSEVARHLLFQSHM | -2.03
PKRAKRKLYTSEISSP | -0.657
SMTDFYHSKRRLIFSK | -1.78
KPKPVKPVTFSTGIKM | 1.32
PAKRRLELGE | -0.0236
TARRIFQEPTEPKTKA | 0.342
GLPDFVFQQQPVESEA | -0.155
DGCSPIKNWSPMRL | -0.202
VLVRTSACRSLFGPVD | -1.26
PKNAKRNLSSEFAN | -1.11
IVLICAKRSLCAAFSV | -1.83

Block 4
Target: ABI1, truncated, D143A, DHFR fusion (Arabidopsis thaliana)
Technique: DHFR PCA, deep sequencing
Medium: yeast
Notes: methotrexate growth selection, single substitutions
Together with: (+)-ABA 58 µM
Baseline: wild-type fitted maximum
Direction: higher = stronger binding
Starting sequence: PYL1, truncated, DHFR fusion (Arabidopsis thaliana); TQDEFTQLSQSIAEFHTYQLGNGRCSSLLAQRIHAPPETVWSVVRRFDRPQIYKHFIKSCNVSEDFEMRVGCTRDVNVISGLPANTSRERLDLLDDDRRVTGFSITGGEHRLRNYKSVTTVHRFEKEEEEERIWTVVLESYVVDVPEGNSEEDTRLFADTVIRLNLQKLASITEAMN
Substitution | relative binding score [%]
N177A | 76.8
V43I | 84.6
H55Y | 76.8
R46W | 25.7
V78Q | 16.1
T160L | 79.3
I133K | 90.3
G23D | 90
R24Q | 97.2
R32T | 93.2
F56K | -6.51
Q7L | 87
R111W | 9.67
P83A | 71.5
Q167H | 78.4
L82H | 0.12
R123I | 56.5
F56S | -3.4
T106R | 62
I162D | -3.65

Block 5
Target: RING finger protein unkempt homolog, zinc fingers 1-6, GST-SBP tag (UNK, Homo sapiens, UniProt Q9C0B0, residues 30-357)
Chain of UniProt Q9C0B0 (30-357, looked up): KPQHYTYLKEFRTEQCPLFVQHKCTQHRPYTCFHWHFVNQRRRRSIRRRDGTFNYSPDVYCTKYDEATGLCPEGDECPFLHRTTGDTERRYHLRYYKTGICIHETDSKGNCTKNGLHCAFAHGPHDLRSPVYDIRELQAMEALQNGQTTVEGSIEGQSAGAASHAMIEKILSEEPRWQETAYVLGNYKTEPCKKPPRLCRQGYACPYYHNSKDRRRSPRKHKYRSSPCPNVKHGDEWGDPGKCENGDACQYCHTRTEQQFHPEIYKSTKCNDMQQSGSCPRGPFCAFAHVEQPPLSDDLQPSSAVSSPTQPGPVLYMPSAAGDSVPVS
Technique: RNA Bind-n-Seq
Molecule type: RNA
Medium: in vitro
Concentration: not given
Notes: RNA with constant flanks, ends assumed
Baseline: input RNA pool
Direction: higher = stronger binding
Shared flanks, not repeated: GGGAGUUCUACAGUCCGACGAUC … CAACAGAGGAUUGAGCAUCA
Sequence | bound/input enrichment
AGAAAUGGGUCGCUCCAAUUCUAGAUCACAUUCUUCAAGGUCAAAGUCUAGAUCACAGUCCCGUUCUCGAUCAAGAUCAAGAUCUCAUUCUAGAAAGAAGCGAUACAGUUCUAGGUCUCG | 0.163 ratio
GCCAGUACAUCUGACAUUGAAGAGAAGGAGAACAGAGAGUCUUCAAGUUUGCGAACAAGCCGUUCUUACACAAGAAGAAAAUGGGAAGAUGAUCUUAAAAAGAAUAGUUCGAUCAAUGAA | 0.159 ratio
UAUUGCAAGGACCUUCUUUGCUGCCAGUUAUCAUAGGCUGUUUUAAGUUAGAAAACUGAACCGCAACACUGAAUACUGUAGAAAUGCACUUUGCUCAGUAAUACUUGAGUUGUUGCAAUA | 0.196 ratio
UUUAUGGCAUGUAAUGGUGUUUAGUAAUAUUUUAAUGUAGAUUUUGAUUUAUUUCAGCAACCGUAAUUUUAAGAUAUUCUUUGAAUGAAAGUGUCUUCGUUUCUAUGAUACAGGUCAUUU | 10.8 ratio
AGGGAAAUAUUAUCUGAUGACAAGCAUGAUUGGGAGCAGAGAGUAAAUGCUCUAAAAAAGAUCCGAUCUUUACUUUUGGCUGGUGCUGCUGAGUAUGAUAACUUCUUUCAACAUUUGCGU | 0.192 ratio
CAAGGGAAGCCCAACUUUGAAGAGUUCUUUGAAAUUCUAACUCCCAAAAUCAACCAGACAUUCCGUGGCAUCAUGACAAUGUUGAACAUGCAGUUUGUCAUCCGGGUGAGGAGAUGGGAU | 0.125 ratio
AAUAUGGCAUCUUCCUUGCUUGCUAUAGCAGGGGAAGGGAAAAUGCCAGUCUUUUUAAUCCCGCAAGCUUCUCGAUCUUAUAAUUAUUAUUUUUUUAAAUUCUGGUCAUGGAUGCUUCUU | 2.06 ratio
CCGGGACAGUGUGGCCGAGCAGAUGGCUAUGUGCUAGAGGGCAAAGAGUUGGAGUUCUAUCUCCGGAAAAUCAAGGCCCGCAAAGGCAAAUAAAUCCUUGUUUUGUCUUCACCCAUGUAA | 0.105 ratio
CCUGGCACCCGAGCCCCUGAUCCCACAGAUAGUCGAAGUCUUCAUAUUCAGCACCCAGGGUACCGACCGGGAGCCGGGACGCUCUCCUCAGGCAACACACAUUGCCCUUCUAGGUUUAGU | 0.913 ratio
CACAAACCUAAUGGACAGCAUGAGAUUUCCUUCAGCGUUGCAGAUACUGAAGUGACUUCCCGCAUAUCAAUCAAUUCUUCCGAUGUACCUGAAGUCACCCAGUCAGAGAAUGUUGGAUCA | 0.13 ratio
GCAAUCAGCAGAGACAUUGAUACUGCUGCCAAAUUUAUUGGUGCAGGUGCUGCAACAGCCGGAGUGGCUGGUUCUGGUGCUGGUAUUGGAACAGUCUUUGGCAGCCUUAUCAUUGGUUAU | 0.153 ratio

Block 6
Target: Fragile X messenger ribonucleoprotein 1, C-terminal low-complexity region (Fmr1, Mus musculus, UniProt P35922)
Technique: RNA Bind-n-Seq
Molecule type: RNA
Medium: in vitro
Concentration: 200 nM
Notes: whole 134-nt RNA, ends assumed
Together with: 150 mM LiCl
Baseline: input library
Direction: higher = stronger binding
All molecules: 7-deaza-guanosine replaces G
Shared flanks, not repeated: GGGAGUUCUACAGUCCGACGAUC … UGGAAUUCUCGGGUGUCAAGG
Sequence | log2 enrichment
UUACUACCUCCGCCUUCAUUUCCGUCAGCAAUCCCGGCGCGGGCUCCCCGGCCCCCGCCAGCCCGCCUCCCCUCGCUGUGCCCGGGACCG | 1.87
UCCUGUGCUACACAUCGUAUGUACCGAAUCGGGGCCCCCGGGCCCCCGGGGCCCCCGGGAAAGUAUUAUGUUACGCCGUUCGGAUCUGCA | -3.22
CUGUGCUACACAUCGUAUGUACCGAAUCGGGGAAAAAAAGGAAAAAAAGGGGAAAAAAAGGGAAAGUAUUAUGUUACGCCGUUCGGAUCU | 0.444
AGUCCUGUGCUACACAUCGUAUGUACCGAAUCGGGUUUUGGGGUUUUGGGGUUUUGGGAAAGUAUUAUGUUACGCCGUUCGGAUCUGCAC | -0.92
AGUCCUGUGCUACACAUCGUAUGUACCGAAUCGGAAAAAGGAAAAAGGUUUUUUUGGAAAGUAUUAUGUUACGCCGUUCGGAUCUGCACU | -2.97
UUCCUCAAGUCCUGUGCUACACAUCGUAUGUACCGAAUCGGAGGAGGAGGGAAAGUAUUAUGUUACGCCGUUCGGAUCUGCACUUCCAGC | -2.53
AGUCCUGUGCUACACAUCGUAUGUACCGAAUCGGAAAAAGGAAAAAAAGGAAAAAGGAAAGUAUUAUGUUACGCCGUUCGGAUCUGCACU | -2.07
AAGUCCUGUGCUACACAUCGUAUGUACCGAAUCAAAUUUUUAAACCCAAAUUUAAAAAAGUAUUAUGUUACGCCGUUCGGAUCUGCACUU | -2.96
AGGCUAUGGAGGCUAUGAUGAUUACAAUGGCUAUAAUGAUGGCUAUGGAUUUGGGUCAGAUAGAUUUGGAAGAGGUAAGGUAAGAAUUGA | -0.129
UGGAAGGAACGAGCCAGGAAGAGGGACUGGAACCAUCUCAGAAGCCAUGCCCCUCAGGCUGGAACUUGCCCUGUCUCCUCGCAGAUGAGG | -1.12
CACAGACAACACGCACCGACACAGACACAGAGGGAAGGGGUUGGGAUGGGGACAGGGUGCACAGCAGGGCGGGGUAGGACCCCAGCCCCU | 1.03

Excerpt of the above (block 6):
Sequence | log2 enrichment
AAGUCCUGUGCUACACAUCGUAUGUACCGAAUCAAAUUUUUAAACCCAAAUUUAAAAAAGUAUUAUGUUACGCCGUUCGGAUCUGCACUU | -2.96
CACAGACAACACGCACCGACACAGACACAGAGGGAAGGGGUUGGGAUGGGGACAGGGUGCACAGCAGGGCGGGGUAGGACCCCAGCCCCU | 1.03
UCCUGUGCUACACAUCGUAUGUACCGAAUCGGGGCCCCCGGGCCCCCGGGGCCCCCGGGAAAGUAUUAUGUUACGCCGUUCGGAUCUGCA | -3.22
UGGAAGGAACGAGCCAGGAAGAGGGACUGGAACCAUCUCAGAAGCCAUGCCCCUCAGGCUGGAACUUGCCCUGUCUCCUCGCAGAUGAGG | -1.12
CUGUGCUACACAUCGUAUGUACCGAAUCGGGGAAAAAAAGGAAAAAAAGGGGAAAAAAAGGGAAAGUAUUAUGUUACGCCGUUCGGAUCU | 0.444
AGUCCUGUGCUACACAUCGUAUGUACCGAAUCGGGUUUUGGGGUUUUGGGGUUUUGGGAAAGUAUUAUGUUACGCCGUUCGGAUCUGCAC | -0.92
AGUCCUGUGCUACACAUCGUAUGUACCGAAUCGGAAAAAGGAAAAAAAGGAAAAAGGAAAGUAUUAUGUUACGCCGUUCGGAUCUGCACU | -2.07
UUCCUCAAGUCCUGUGCUACACAUCGUAUGUACCGAAUCGGAGGAGGAGGGAAAGUAUUAUGUUACGCCGUUCGGAUCUGCACUUCCAGC | -2.53
